{"data": "Measured values of several laboratories", "note": "Parts stem from different laboratories: compare values within a part only. Values joined by “and” are separate records of one study, mostly repeats; a detail may differ.", "chain of UniProt P42336 (whole entry, unmodified, looked up)": "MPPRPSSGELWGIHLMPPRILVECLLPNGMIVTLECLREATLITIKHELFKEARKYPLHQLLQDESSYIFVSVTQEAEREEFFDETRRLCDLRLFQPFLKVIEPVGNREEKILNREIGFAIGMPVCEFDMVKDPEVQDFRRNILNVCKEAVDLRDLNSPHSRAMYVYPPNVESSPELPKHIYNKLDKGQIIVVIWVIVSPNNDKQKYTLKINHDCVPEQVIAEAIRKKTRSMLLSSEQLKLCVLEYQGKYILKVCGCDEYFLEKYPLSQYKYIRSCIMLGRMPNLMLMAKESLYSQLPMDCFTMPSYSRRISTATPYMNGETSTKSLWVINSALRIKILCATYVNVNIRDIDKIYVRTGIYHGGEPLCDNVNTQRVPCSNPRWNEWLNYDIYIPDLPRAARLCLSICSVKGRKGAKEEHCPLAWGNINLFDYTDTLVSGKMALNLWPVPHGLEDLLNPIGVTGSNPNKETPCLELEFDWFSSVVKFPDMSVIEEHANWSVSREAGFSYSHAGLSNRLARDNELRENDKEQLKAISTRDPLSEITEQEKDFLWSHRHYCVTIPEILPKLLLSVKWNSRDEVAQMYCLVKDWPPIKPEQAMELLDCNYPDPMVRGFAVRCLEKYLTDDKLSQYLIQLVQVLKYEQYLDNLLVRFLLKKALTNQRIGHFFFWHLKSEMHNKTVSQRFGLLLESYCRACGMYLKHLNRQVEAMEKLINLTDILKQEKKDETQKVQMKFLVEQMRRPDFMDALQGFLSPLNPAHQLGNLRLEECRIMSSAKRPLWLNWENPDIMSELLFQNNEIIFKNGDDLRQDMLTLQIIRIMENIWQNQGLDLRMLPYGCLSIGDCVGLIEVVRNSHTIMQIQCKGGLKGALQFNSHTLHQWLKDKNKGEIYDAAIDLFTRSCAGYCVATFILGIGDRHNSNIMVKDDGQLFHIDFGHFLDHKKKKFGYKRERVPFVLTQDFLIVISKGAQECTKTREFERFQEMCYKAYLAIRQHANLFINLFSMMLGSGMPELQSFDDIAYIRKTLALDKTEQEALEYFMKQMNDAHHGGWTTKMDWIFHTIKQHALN", "chain of UniProt P52333 (whole entry, looked up)": "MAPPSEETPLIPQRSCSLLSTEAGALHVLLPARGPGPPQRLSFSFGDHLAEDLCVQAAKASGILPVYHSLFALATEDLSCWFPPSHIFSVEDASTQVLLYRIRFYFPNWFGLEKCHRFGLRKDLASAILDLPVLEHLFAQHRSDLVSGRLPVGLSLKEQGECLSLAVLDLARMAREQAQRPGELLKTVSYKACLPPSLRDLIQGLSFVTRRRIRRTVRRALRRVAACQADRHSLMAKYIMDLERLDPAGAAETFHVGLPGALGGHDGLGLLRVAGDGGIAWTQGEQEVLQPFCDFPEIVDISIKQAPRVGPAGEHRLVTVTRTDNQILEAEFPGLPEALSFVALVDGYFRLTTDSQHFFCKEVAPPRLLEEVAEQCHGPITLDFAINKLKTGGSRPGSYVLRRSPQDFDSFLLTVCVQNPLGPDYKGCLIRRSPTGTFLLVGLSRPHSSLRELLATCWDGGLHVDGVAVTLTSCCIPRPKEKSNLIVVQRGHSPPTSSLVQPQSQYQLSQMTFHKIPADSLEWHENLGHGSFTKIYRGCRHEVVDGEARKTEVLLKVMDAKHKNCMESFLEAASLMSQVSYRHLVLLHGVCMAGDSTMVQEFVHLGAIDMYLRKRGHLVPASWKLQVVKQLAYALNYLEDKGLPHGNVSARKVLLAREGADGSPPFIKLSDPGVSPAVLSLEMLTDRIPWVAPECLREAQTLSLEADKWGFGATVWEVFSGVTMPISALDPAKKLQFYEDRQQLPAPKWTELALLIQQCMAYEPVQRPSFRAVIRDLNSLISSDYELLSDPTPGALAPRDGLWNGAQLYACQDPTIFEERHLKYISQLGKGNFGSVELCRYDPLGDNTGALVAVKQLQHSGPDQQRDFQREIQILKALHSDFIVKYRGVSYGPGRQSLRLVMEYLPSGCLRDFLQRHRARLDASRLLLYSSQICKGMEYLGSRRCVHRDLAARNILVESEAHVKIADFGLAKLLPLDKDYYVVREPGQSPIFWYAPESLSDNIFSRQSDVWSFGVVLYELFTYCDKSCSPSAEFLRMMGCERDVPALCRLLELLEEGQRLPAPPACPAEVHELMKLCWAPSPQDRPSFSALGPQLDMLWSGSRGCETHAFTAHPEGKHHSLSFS", "chain of UniProt Q02763 (whole entry, looked up)": "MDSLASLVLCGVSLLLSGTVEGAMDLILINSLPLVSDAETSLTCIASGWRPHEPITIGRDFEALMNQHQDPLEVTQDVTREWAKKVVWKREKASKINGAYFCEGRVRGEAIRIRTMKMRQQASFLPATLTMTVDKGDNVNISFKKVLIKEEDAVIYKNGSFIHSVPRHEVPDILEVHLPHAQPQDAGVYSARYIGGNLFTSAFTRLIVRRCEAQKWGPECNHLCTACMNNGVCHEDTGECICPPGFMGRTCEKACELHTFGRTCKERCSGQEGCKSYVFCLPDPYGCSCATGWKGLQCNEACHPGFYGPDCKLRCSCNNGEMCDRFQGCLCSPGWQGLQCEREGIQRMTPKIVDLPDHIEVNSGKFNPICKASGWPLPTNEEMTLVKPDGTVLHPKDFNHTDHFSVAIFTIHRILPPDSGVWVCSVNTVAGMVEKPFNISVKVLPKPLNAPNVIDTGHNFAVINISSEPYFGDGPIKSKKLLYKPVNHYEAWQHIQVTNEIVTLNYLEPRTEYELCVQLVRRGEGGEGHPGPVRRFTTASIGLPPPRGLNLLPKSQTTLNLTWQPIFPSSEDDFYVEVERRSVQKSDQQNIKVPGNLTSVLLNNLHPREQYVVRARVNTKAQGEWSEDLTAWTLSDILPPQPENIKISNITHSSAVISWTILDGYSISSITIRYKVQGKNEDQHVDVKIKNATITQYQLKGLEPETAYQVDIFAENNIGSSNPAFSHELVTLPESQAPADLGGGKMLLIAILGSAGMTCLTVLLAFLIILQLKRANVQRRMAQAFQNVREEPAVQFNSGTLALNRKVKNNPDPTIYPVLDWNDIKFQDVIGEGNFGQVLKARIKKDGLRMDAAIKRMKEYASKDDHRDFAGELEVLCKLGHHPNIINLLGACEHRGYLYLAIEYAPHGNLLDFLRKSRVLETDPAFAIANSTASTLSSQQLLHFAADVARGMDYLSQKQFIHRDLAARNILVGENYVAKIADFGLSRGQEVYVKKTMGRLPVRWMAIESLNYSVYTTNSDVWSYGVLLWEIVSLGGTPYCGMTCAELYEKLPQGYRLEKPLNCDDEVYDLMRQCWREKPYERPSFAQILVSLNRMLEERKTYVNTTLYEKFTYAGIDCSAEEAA", "chain of UniProt P78368 (whole entry, looked up)": "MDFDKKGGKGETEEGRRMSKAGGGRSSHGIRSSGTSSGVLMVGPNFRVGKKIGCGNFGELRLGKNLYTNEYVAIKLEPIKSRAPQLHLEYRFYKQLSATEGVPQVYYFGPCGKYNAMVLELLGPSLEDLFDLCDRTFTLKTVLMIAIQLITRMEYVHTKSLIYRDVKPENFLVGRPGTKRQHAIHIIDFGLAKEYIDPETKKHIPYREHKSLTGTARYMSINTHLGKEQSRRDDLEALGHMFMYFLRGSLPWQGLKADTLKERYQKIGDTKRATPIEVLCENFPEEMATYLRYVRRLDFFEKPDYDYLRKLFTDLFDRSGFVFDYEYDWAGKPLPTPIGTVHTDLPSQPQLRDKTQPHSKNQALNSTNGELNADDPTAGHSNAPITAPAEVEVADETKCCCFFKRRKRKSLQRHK", "chain of UniProt P30291 (whole entry, looked up)": "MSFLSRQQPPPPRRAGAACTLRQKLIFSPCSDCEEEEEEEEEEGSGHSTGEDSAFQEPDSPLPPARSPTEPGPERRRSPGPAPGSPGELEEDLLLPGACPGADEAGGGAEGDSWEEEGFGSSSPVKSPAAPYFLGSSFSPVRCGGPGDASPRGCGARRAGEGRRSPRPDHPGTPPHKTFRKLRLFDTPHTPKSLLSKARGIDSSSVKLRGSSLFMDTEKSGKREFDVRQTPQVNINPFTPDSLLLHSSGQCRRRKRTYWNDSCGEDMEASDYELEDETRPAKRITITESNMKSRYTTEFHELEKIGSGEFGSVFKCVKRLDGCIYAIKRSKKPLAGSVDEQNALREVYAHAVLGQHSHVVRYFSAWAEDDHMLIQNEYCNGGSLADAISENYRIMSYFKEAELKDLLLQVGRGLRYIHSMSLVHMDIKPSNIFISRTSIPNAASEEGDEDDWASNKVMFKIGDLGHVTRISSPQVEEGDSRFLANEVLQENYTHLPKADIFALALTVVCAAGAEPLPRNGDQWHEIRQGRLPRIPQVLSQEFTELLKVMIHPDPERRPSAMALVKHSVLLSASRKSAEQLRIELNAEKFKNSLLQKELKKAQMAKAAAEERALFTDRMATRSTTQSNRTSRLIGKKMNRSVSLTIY", "chain of UniProt P36896 (whole entry, looked up)": "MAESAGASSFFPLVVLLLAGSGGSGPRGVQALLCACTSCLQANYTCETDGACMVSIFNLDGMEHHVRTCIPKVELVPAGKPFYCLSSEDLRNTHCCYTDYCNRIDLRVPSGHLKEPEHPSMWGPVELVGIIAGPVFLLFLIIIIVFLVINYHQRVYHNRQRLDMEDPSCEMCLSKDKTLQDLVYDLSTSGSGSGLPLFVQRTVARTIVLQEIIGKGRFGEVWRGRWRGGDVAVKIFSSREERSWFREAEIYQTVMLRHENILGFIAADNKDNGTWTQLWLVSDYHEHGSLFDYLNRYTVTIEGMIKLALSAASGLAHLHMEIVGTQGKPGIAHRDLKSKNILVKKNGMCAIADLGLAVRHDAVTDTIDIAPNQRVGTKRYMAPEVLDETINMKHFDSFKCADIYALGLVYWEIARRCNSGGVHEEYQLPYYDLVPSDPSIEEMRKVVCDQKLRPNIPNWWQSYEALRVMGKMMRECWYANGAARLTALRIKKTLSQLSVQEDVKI"}
{"data": "Series 1", "SMILES": "CCC(=O)N[C@@H]1CC[C@H](C(=O)N(C)c2ccc(-c3nc4ccccc4o3)cc2)C1", "read-out": "cell-free assay", "technique": "competition with immobilised ligand", "concentration": "1 µM"}
{"target": "PIK3CA (Homo sapiens, UniProt P42336, H1047Y)", "remaining binding [%]": 100}
{"target": "MERTK (Homo sapiens, UniProt Q12866)", "remaining binding [%]": 100}
{"target": "STK38L (Homo sapiens, UniProt Q9Y2H1)", "remaining binding [%]": 100}
{"target": "ALK (Homo sapiens, UniProt Q9UM73, L1196M)", "remaining binding [%]": 100}
{"target": "PTK2 (Homo sapiens, UniProt Q05397)", "remaining binding [%]": 100}
{"target": "Tyrosine-protein kinase JAK3, JH1 (JAK3, Homo sapiens, UniProt P52333)", "remaining binding [%]": 98}
{"target": "FLT3 (Homo sapiens, UniProt P36888, K663Q)", "remaining binding [%]": 100}
{"target": "CDK8 (Homo sapiens, UniProt P49336)", "remaining binding [%]": 100}
{"data": "Series 2", "host": "human", "sample": "microsomes or S9", "concentration": "2 µM", "time": "0.5 h"}
{"Compound": "COc1ccccc1/C=C/c1nc(S(=O)(=O)c2ccccc2)c(N2CCN(C)CC2)o1", "remaining compound": "12.8%"}
{"Compound": "CC(C)(C)NC(=O)Cn1c(=O)n(-c2ccccc2F)c(=O)c2sccc21", "remaining compound": "88.4%"}
{"Compound": "COc1cc2c(cc1OC)/C(=N\\c1ccccc1)N(Cc1ccc(F)c(F)c1)CC2", "remaining compound": "0.391%"}
{"Compound": "C[C@H](Nc1nc(N)nc2[nH]cnc(=O)c12)c1cc2cccc(Cl)c2c(=O)n1-c1ccccc1", "remaining compound": "31.2%"}
{"Compound": "COc1cc(=O)[nH]cc1C(=O)NCCc1cn(C)c2cc(C)ccc12", "remaining compound": "34.8%"}
{"data": "Series 3", "Structure (SMILES)": "COc1cc2ncnc(Nc3ccc(O)c(Br)c3)c2cc1OC", "read-out": "enzyme activity", "action": "inhibitor", "concentration": "0.5 µM", "baseline": "control"}
{"target": "EPHA3 (Homo sapiens, UniProt P29320)", "remaining activity [%]": 95.4}
{"target": "NEK6 (Homo sapiens, UniProt Q9HC98)", "remaining activity [%]": 100}
{"target": "TEK (Homo sapiens, UniProt Q02763)", "remaining activity [%]": 93.8}
{"target": "CSNK1G3 (Homo sapiens, UniProt Q9Y6M4)", "remaining activity [%]": 101}
{"target": "ACVR1B (Homo sapiens, UniProt P36896)", "remaining activity [%]": 105}
{"target": "MAPKAPK2 (Homo sapiens, UniProt P49137)", "remaining activity [%]": 97.7}
{"target": "MST1R (Homo sapiens, UniProt Q04912)", "remaining activity [%]": 101}
{"target": "WEE1 (Homo sapiens, UniProt P30291)", "remaining activity [%]": 92.5}
{"target": "MAPK3 (Homo sapiens, UniProt P27361)", "remaining activity [%]": 97}
{"target": "MAP3K5 (Homo sapiens, UniProt Q99683)", "remaining activity [%]": 98.6}
{"target": "ABL2 (Homo sapiens, UniProt P42684)", "remaining activity [%]": 58.4}
{"target": "CSNK1G2 (Homo sapiens, UniProt P78368)", "remaining activity [%]": 96.4}
{"data": "Single results of other studies"}
{"Structure (SMILES)": "CC(C)C[C@@H]1NC(=O)[C@@H](N(C)C(=O)[C@H](CC2CCC2)NC(=O)[C@@H]2C[C@@H](F)CN2C(=O)C2(C(F)(F)F)CC(F)(F)C2)CCCCNC(=O)C2(CC2)NC(=O)[C@H](Cc2cc(Cl)ccc2Cl)N(C)C1=O", "cell line": "human CD34+ HSPC", "technique": "EdU flow cytometry", "concentration": "3000 nM", "time": "24 h", "measurement": "S-phase cells", "result": "43.1% and 38.4%"}
{"note": "For quick reference, copied from above (series 3):"}
{"target": "ABL2 (Homo sapiens, UniProt P42684)", "remaining activity [%]": 58.4}
